Results from different studies.
Parts stem from different laboratories: compare values within a part only. Changes are numbered by the printed parent chain.
Sequence of UniProt P53779 (whole entry, looked up): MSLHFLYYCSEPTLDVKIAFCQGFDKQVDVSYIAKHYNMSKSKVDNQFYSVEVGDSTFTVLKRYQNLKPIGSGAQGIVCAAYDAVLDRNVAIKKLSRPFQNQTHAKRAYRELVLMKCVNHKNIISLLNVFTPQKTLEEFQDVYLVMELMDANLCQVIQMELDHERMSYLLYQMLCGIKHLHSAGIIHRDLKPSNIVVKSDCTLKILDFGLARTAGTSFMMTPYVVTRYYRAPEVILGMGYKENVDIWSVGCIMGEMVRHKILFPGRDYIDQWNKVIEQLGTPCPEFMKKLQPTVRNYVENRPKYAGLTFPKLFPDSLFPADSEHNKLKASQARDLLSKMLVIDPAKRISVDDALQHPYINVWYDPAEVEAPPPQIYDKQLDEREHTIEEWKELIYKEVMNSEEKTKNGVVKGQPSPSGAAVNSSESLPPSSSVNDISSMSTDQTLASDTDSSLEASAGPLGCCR

Study 1 — method: DHFR PCA, deep sequencing; matrix: yeast; with: (+)-ABA 2500 µM; relative to: wild-type fitted maximum; direction: higher = stronger binding; endpoint: relative binding score
Target: ABI1, truncated, D143A, DHFR fusion (Arabidopsis thaliana)
Notes: methotrexate growth selection, single substitutions
Starting sequence: PYL1, truncated, DHFR fusion (Arabidopsis thaliana); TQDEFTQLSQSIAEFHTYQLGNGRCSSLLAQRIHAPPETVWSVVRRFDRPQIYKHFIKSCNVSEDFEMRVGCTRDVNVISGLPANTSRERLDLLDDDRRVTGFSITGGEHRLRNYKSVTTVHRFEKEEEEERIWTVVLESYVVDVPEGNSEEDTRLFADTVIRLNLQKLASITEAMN; partner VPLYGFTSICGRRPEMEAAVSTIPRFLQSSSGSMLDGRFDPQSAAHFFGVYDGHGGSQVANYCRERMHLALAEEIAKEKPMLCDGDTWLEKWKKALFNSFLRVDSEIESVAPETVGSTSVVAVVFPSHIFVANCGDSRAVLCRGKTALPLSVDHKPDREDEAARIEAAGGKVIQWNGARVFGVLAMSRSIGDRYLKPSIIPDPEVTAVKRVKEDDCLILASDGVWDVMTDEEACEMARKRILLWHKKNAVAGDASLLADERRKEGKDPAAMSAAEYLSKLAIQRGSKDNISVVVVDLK
T101H: 89.7%
A35W: 50.1%
D92A: 85%
E147V: 97.4%
F56Y: 92%
E130V: 101%
Q7N: 102%
R163P: -7.33%

Study 2 — method: protein binding microarray; form: double-stranded DNA, one strand shown; matrix: in vitro; concentration: not given; relative to: not given; direction: higher = stronger binding; endpoint: E-score
Target: Histone acetyltransferase KAT6A, both winged helices, GST fusion (KAT6A, Homo sapiens, UniProt Q92794, residues 1-181)
Notes: 8-mer, flanks averaged, mean of 2 arrays, mostly near background
Residues (chain): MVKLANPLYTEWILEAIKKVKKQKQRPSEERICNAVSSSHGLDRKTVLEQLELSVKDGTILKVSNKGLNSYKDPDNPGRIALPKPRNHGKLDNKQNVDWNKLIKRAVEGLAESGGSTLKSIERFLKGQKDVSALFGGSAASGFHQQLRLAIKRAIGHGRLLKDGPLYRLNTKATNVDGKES
CCCTGCGG: 0.0379
CATGGCGA: -0.0636
CTGTAAGC: -0.0643
AGCGCCGG: 0.328
GCGCCGCA: 0.321
GGGGGGGA: -0.141
AATGGACA: -0.156
ACCATAAT: -0.0956

Single results of other studies
FKH2 DNA-binding domain: Fork head protein homolog 2, DNA-binding domain (FKH2, Saccharomyces cerevisiae, UniProt P41813, residues 280-520)
Sequence of UniProt P41813 (280-520, looked up): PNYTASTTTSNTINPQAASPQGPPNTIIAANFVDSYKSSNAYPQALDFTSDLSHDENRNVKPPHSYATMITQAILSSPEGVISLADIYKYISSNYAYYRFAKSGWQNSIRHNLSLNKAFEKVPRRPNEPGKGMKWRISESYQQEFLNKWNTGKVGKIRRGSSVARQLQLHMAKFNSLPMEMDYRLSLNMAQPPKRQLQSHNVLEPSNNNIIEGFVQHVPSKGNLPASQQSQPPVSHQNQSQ
GTACACA
relative binding free energy (FKH2 DNA-binding domain; SELEX-seq; double-stranded DNA, one strand shown, in vitro; not given, 7-bp core, flanks averaged; relative to: best-binding core, lower = stronger binding): 1.4 ddG/RT

COc1ccc2c(O[C@@H]3C[C@H]4C(=O)N[C@]5(C(=O)O)CC5/C=C\CCCCC[C@H](NC(=O)OC5CCCC5)C(=O)N4C3)cc(-c3csc(NC(=O)C(C)C)n3)nc2c1C (stereo partly shown)
remaining binding (Mitogen-activated protein kinase 10 (MAPK10, Homo sapiens, UniProt P53779); cell-free assay, competition with immobilised ligand; 1 µM): 71%

GAATACA
relative binding free energy (FKH2 DNA-binding domain; SELEX-seq; double-stranded DNA, one strand shown, in vitro; not given, 7-bp core, flanks averaged; relative to: best-binding core, lower = stronger binding): 2.28 ddG/RT

Excerpt of the above (study 2):
CCCTGCGG: 0.0379
CATGGCGA: -0.0636
